Published values collected from several papers.
Protocols differ between the studies behind these lines. Numbers after ± are the reported error.

SMILES	test	test system	setting	how to read	quantity	value
Cc1ncc2n1-c1ccc(Cl)cc1C(c1ccccc1F)=NC2	–	wild-type mice, plasma	intravenous, 0.3 mg/kg, CMC pretreatment 14 days	–	MRT	15.3 ± 2.5 min
C#Cc1ccc2c(c1)C(c1ccccn1)=NCc1c(-c3cnco3)ncn1-2.Cl	–	DMSO	24 h, 25 °C, thermodynamic equilibrium	–	solubility	4420 µg/mL
CCN(CC)C(=O)[C@@H]1C=C2c3cccc4[nH]cc(c34)C[C@H]2N(C)C1	item: hot flashes	healthy volunteers	dose not given, 12 to 24 h	relative to: placebo, direction not given	List of Complaints score	0
CN/C(=N\[N+](=O)[O-])NCc1cnc(Cl)s1	–	soil	28 days, nominal 0.37	–	concentration	0.17 mg/kg dry soil
COc1cccc(C2(O)CCCCC2CN(C)C)c1 (centres unmarked)	joint PK model	human, whole blood	oral, dose not given, one-compartment metabolite model	–	peripheral volume	0.471 L
CCCCCCCCCCC(=O)O[C@H]1CC[C@H]2[C@H]3[C@H]([C@@H](C)C[C@]12C)[C@H]1CCC(=O)C=C1C[C@H]3C	–	human serum	300 ng/mL, NaF 100 mg/mL	–	DMA level	not detected
O=C1c2c(O)c(=O)ccn2N([C@@H]2c3ccccc3SCc3c2ccc(F)c3F)[C@@H]2COCCN12	–	BALB/c mice, plasma	oral, 1.5 mg/kg baloxavir marboxil, 4 h	–	plasma concentration	5.72 ng/mL
COc1cc2c(Oc3ccc4[nH]c(C)cc4c3F)ccnc2cc1OCC1(N)CC1	–	paediatric refractory sarcoma patients	12 mg	–	influenza-like illness incidence	9.1%

Some of these lines once more:
SMILES	test	test system	setting	how to read	quantity	value
CCN(CC)C(=O)[C@@H]1C=C2c3cccc4[nH]cc(c34)C[C@H]2N(C)C1	item: hot flashes	healthy volunteers	dose not given, 12 to 24 h	relative to: placebo, direction not given	List of Complaints score	0
